Results of several laboratories.
Parts stem from different laboratories: compare values within a part only.

Series 1
Target: RNA binding protein fox-1 homolog 2, RRM domain, GST-SBP tag (RBFOX2, Homo sapiens, UniProt O43251-10, residues 100-194)
Method: RNA Bind-n-Seq
Molecule type: RNA
Matrix: in vitro
Concentration: 365 nM
Setting: natural RNA segment, single round, ends assumed
Reference: no-protein control
Direction: higher = stronger binding
Constant ends, left off below: GGGAGUUCUACAGUCCGACGAUC … UGGAAUUCUCGGGUGCCAA
Target sequence (chain): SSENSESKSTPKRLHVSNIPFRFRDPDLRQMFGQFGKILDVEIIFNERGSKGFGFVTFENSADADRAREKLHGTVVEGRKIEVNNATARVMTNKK
Sequence	RBNS enrichment (R)
GCUGUCUUUGUUAGAUACUGCUGAGUGAAAGGUGGACCGAGAAGGCUCUUGUGAAGCUCCAGGUAGACGGGAAUGUUCCUCGGUUCAGGUGAGAGCCAGAUCUAGAGAGU	0.42
GAAAUUCAUUCAAAACCCGUUAGAGUCAUAGAAUUUUUUGAAAGGCAAAUUAUAAAAGUAAACAGGUUUUUUUGUUUGGUUUUUCAAUCAUAGCAAUCGGAAUUAUUUUA	0.58
CACAUUCUUUGAUUUGACAUUGAUGUCAUCUUACAGGGCUGCGCUUGCUGGGCAUGCUUUUAAGUCUGUGAGAUCAUUUUGCUUCAUUAAGUUGACCAUUCUUUUUGUUU	1.46
UUUACUGUUGCUUAUCUCCAAGAUAUUAUGGAAUUAAGAAUUUUUCCAGAUGAGUGUUACAUAGAUUCUUUGAAUUUAGUAUAAAAGUACUGAGAAUUAAGUUUGUACUU	0.542
CCUUCAGUGAUAUACUUGUUCGUUCAUUUCUAAAAUGUGAAGCUUUAGGACCAAAUUGUUAGAAAGCAUCAGGAUGACCAGUUAUCUCGAGUAGAUUUUCUUGGAUUUCA	0.56
GUGGAGGAACUGUGCCUCCAUCCCCAGAAGAAACAGCCCCCUCUGCUGCUGGGGUGGGACUGUCUGUGUGCCCUGUGGGGGUCCGUGUGAGCAGGCCCACCUGGCUCCAG	0.294
ACAGGAUGGAAGGAAUCAAAGCACUUUAUCGAGCUUGUGGCUGAGCAUUGCAGCCUAUGUGCAAACCCAGAGGAAAAGUAUCUCUGUCAAGACAGCUCCAGUAUCAUGCA	3.96
CAGUUUCAUGAAAGAAAGUGGAAGCUACAGAAUUAUUUUCUAAAAUAAAGGCUGAAUUGUCUGAAAAUAUUUAUGUGUGUGUGUCCUGGAAAAGGAGGUGGCAGGCAGGG	0.851

Series 2
Target: Interferon regulatory factor 7, full length, phosphomimetic (IRF7, Homo sapiens, UniProt Q92985, residues 1-503, S471D/S472D/S475D/S476D/S477D/S483D/S484D/S487D)
Chain of UniProt Q92985 (whole entry, unmodified, looked up): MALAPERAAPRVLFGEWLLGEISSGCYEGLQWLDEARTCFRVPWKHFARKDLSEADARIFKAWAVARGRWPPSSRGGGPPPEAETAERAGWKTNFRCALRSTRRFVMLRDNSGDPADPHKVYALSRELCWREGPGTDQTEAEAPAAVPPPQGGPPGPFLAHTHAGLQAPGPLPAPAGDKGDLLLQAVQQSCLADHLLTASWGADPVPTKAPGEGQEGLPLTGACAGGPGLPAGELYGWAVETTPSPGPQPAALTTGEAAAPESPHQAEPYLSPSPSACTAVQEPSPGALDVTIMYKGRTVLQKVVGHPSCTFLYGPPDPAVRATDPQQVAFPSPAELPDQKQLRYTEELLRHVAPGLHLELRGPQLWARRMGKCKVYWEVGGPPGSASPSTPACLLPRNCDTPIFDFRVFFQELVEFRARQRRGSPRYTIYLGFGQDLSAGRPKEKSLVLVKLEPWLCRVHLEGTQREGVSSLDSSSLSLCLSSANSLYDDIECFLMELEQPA
Method: protein-binding microarray
Molecule type: double-stranded DNA, one strand shown
Matrix: in vitro
Concentration: 2200 nM top
Setting: 60-bp whole probe
With: salmon DNA 0.4 mg/ml
Reference: random background probes
Direction: higher = stronger binding
Constant ends, left off below: GCCTAGCAC … GTCTTGATTCGCTTGACGCTGCTG
Sequence	fitted relative affinity [z-score]
CAAGTTACCCACCTCAGGTAGTGCTAG	0.723
CTTCTTTTTTTTCTTTAAAAGTGCTAG	2.41
GACGGTACCGGTATCGGGACGTGCTAG	-0.033
TCAAGAATGTCCTTTCTCACTGTGCTA	0.495
GACGATTTCAGTCTCCAGACGTGCTAG	0.993
TTAGGACTCGGTTTCGGTTAGTGCTAG	7.3
GACGATCTCAGTTCCGAGACGTGCTAG	0.598
TCATCTCCCAGACTGGAACTGTGCTAG	1.02
TTAGGACTGGGTACCGGTTAGTGCTAG	-0.876
TCACTTCTGGATTTTTTACTGTGCTAG	1.6
CTCTACTTGTGTCTAGAGATGTGCTAG	0.856
GACGATATCGGGTTTCGTGACGTGCTA	1.33
GACGGTTTCCTACTGCTTACGTGCTAG	2.23
TCATCTCCCAAGTCTTGTACTGTGCTA	1.59
TCAAGCTTCCATTTTCTACTGTGCTAG	1.97
TTAGGATTGGGACTGGGTTAGTGCTAG	-0.333
TCAGTTTTCAGCTGTTTTACTGTGCTA	1.95
TTAGATTTCAGTTTCGCTTAGTGCTAG	7.43

Series 3
Target: Hepatocyte nuclear factor 3-beta, forkhead domain (FOXA2, Homo sapiens, UniProt Q9Y261, residues 142-269)
Method: protein-binding microarray
Molecule type: double-stranded DNA, one strand shown
Matrix: in vitro
Concentration: not given
Setting: k-mer, scored over probes, only values ≥0.25
Direction: higher = stronger binding
Residues (chain): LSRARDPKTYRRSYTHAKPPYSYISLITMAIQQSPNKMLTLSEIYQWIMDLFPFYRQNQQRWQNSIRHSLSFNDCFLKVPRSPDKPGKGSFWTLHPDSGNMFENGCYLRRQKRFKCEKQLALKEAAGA
Sequence	E-score
CTGTAAAC	0.306
ATATACGG	0.281
GCGTAATA	0.27
AATACTAT	0.252
TGATATCA	0.298
GGCAAATA	0.314
GATACAAA	0.27
CTAAACAC	0.251
AATGAGTA	0.27
ACGGATAT	0.271
AATACATA	0.402
ACCAATTA	0.271
GACATATC	0.304
AAATATGA	0.377
ATTATGTG	0.346
CATATAAG	0.28
CACATATG	0.308
ATAACTAC	0.276
CCAATACA	0.292

Series 4
Target: Fragile X messenger ribonucleoprotein 1, C-terminal low-complexity region (Fmr1, Mus musculus, UniProt P35922)
Method: RNA Bind-n-Seq
Molecule type: RNA
Matrix: in vitro
Concentration: 200 nM
Setting: whole 134-nt RNA, ends assumed
With: 150 mM LiCl
Reference: input library
Direction: higher = stronger binding
Each molecule: 7-deaza-guanosine replaces G
Constant ends, left off below: GGGAGUUCUACAGUCCGACGAUC … UGGAAUUCUCGGGUGUCAAGG
Sequence	log2 enrichment
CCUCAAGUCCUGUGCUACACAUCGUAUGUACCGAAUCGGGUUGGUUGGUUGGAAAGUAUUAUGUUACGCCGUUCGGAUCUGCACUUCCAG	-0.458
CAAGUCCUGUGCUACACAUCGUAUGUACCGAAUCAAACCCAAACCCAAACCCAAAAAAGUAUUAUGUUACGCCGUUCGGAUCUGCACUUC	0.303
UGGCCCUGGUGGCAUGCGGGGAGAAAGAGGUGGCCUCAUGGAUCGUGGUGGUCCCGGUGGAAUGUUCAGAGGUGGCCGUGGUGGAGACAG	0.341
CCUGUGCUACACAUCGUAUGUACCGAAUCGUGUGUGUGUGUGUGUGUGUGUGUGUGUGUGUAAAGUAUUAUGUUACGCCGUUCGGAUCUG	-0.386
UAACUUUAGAGGAGGAUCUGAUGGAUAUGGCAGUGGACGUGGAUUUGGGGAUGGAUAUAAUGGGUAUGGAGGAGGACCUGGAGGUGGCAA	1.44
AGUCCUGUGCUACACAUCGUAUGUACCGAAUCGGAAAGGUUUUUUUGGAAAAAAAGGAAAGUAUUAUGUUACGCCGUUCGGAUCUGCACU	-2.65
UAACUUUAGAGGAGGAUCUGAUGGAUAUGGCAGUGGACGUGGAUUUGGGGAUGGCUAUAAUGGGUAUGGAGGAGCACCUGGAGGUGGCAA	0.965
GUCCUGUGCUACACAUCGUAUGUACCGAAUCGGGUUUGGGUUUUUUUGGGUUUUUGGGAAAGUAUUAUGUUACGCCGUUCGGAUCUGCAC	-0.318

Excerpt of the above (series 2):
Sequence	fitted relative affinity [z-score]
TCACTTCTGGATTTTTTACTGTGCTAG	1.6
CTCTACTTGTGTCTAGAGATGTGCTAG	0.856
TTAGGACTCGGTTTCGGTTAGTGCTAG	7.3
